Results collected from several papers.
Lines come from different studies, so protocols differ. “And” joins repeats or separate records; there may be more than shown. ± marks the error that the study gave.

Under “cells with chromosome gaps”, O=C1NC2(CC2)COc2ncc(F)cc2[C@H]2COCCN2c2ccn3ncc1c3n2 is recorded as 0.7% (CHL cells; chromosomal aberration test; 20 µg/mL, 24 h, without S9 mix).
The viability of CN1CCCNC(=O)c2cccc(c2)C(=O)NCCCN(C)CCCNc2cccc3c2C(=O)c2cccc(c2C3=O)NCCC1 is reported as 43.8% (HEK293; cell growth or viability, CCK-8; 1.5 µM, 48 h).
With C=C(NC(=O)c1csc(-c2nc3c(cc2O)-c2nc(cs2)C(=O)NC(C(C)O)C(=O)NC(=C(C)OC)c2nc(cs2)C(=O)NC2c4nc(cs4)C(=O)NC(COC(=O)c4c5c6c(cccc6n4O)COC(=O)C(OC4CC(C)(O)C(N(C)C)C(C)O4)C2OC5)c2nc-3cs2)n1)C(N)=O (centres unmarked) the AUC(0-last) was 25300 ng·h/mL (cynomolgus monkey, female, plasma; intravenous infusion, 3 mg/kg, multiple doses, day 7).
Under “revertant fold increase”, CC(C)OCCOCc1ccc(OCC(O)CN(N=O)C(C)C)cc1 (centres unmarked) is recorded as 1.1 fold (Salmonella typhimurium; Ames test; TA100; 5 µg/plate, 30 % hamster S9; reference: solvent control).
For CCN(CC)CC#CCNc1ccnc2cc(Cl)ccc12, the revertants was 14 revertants/well and 15 revertants/well (Salmonella typhimurium; mini-Ames test; TA98; 125.0 µg/well, with rat liver S9).
O=C1C2CC3CC1CC(C(=O)N1CCN(c4ccc([N+](=O)[O-])c5ncccc45)CC1)(C3)C2: “revertant fold increase” 1 (Escherichia coli; Ames test; WP2 uvrA pKM101; 0.78 µg/well, with S9; reference: vehicle).
CCCCCCC(CSS(=O)(=O)O)NC(C)C (centres unmarked) gave a body weight of 35 g and 31.9 g and 34.7 g (Schistosoma mansoni; perfusion day 57; infected Swiss Webster mice; 100 mg/kg).
CNC(=O)C1CCCN(C(=O)C2CC3CCC2N3C(=O)[C@@H]2C[C@@H](O)CN2C(=O)NCc2cccc(Cl)c2F)C1 (mixture of isomers) gave a remaining activity of 101% (CYP3A4 (human); inhibitor, time-dependent inhibition; 50 µM, preincubated without NADPH, added: testosterone substrate; reference: negative control).
With CC(C)Cc1ccc(C(C)C(=O)N[C@@H](CCCCNC(=O)CCOCCOCCOCCOCCOCCOCCNC(=O)CN2CCN(CC(=O)[O-])CCN(CC(=O)[O-])CCN(CC(=O)[O-])CC2)C(=O)Nc2cccc3c(C(=O)NCC(=O)N4CC(F)(F)C[C@H]4C#N)ccnc23)cc1.[177Lu+3] (some centres unmarked) the tracer uptake was 1.38 %ID/g (U-87 MG tumour model; host not given, bone; 48 h, tumour-bearing).
The body weight of CC(C)NCC(SS(=O)(=O)O)c1ccccc1 (centres unmarked) is reported as 32.5 g and 32 g and 34.6 g (Schistosoma mansoni; perfusion day 62; infected Swiss Webster mice; 100 mg/kg).
Cc1cc(=O)c2c(O)c3c(O[C@@H]4O[C@H](CO)[C@@H](O)[C@H](O)[C@H]4O)cc(O)cc3cc2o1 gave a cell viability of 86.8 ± 15.9% (HK-2 co-cultured with HepaRG; MTT; 33.33 µM, 24 h; reference: untreated control).

A few entries again:
With CC(C)Cc1ccc(C(C)C(=O)N[C@@H](CCCCNC(=O)CCOCCOCCOCCOCCOCCOCCNC(=O)CN2CCN(CC(=O)[O-])CCN(CC(=O)[O-])CCN(CC(=O)[O-])CC2)C(=O)Nc2cccc3c(C(=O)NCC(=O)N4CC(F)(F)C[C@H]4C#N)ccnc23)cc1.[177Lu+3] (some centres unmarked) the tracer uptake was 1.38 %ID/g (U-87 MG tumour model; host not given, bone; 48 h, tumour-bearing).
